Measured values from different studies.
± gives the spread as reported.
HTR2A: 5-hydroxytryptamine receptor 2A (HTR2A, Homo sapiens, UniProt P28223)
Chain of UniProt P28223 (whole entry, looked up): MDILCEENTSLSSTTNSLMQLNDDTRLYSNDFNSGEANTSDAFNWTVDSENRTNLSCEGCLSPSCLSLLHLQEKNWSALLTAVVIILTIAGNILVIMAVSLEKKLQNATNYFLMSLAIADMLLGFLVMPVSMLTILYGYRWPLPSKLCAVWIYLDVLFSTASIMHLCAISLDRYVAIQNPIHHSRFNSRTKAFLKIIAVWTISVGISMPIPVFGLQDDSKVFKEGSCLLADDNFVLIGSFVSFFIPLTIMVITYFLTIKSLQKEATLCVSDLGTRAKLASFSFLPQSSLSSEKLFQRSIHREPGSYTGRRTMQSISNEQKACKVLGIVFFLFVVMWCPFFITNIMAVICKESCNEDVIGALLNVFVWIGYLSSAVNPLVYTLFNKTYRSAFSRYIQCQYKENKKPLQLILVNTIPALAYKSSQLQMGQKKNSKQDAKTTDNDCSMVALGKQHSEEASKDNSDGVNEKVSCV
Sterol carrier protein 2: Sterol carrier protein 2 (Homo sapiens, UniProt P22307)
Chain of UniProt P22307 (whole entry, looked up): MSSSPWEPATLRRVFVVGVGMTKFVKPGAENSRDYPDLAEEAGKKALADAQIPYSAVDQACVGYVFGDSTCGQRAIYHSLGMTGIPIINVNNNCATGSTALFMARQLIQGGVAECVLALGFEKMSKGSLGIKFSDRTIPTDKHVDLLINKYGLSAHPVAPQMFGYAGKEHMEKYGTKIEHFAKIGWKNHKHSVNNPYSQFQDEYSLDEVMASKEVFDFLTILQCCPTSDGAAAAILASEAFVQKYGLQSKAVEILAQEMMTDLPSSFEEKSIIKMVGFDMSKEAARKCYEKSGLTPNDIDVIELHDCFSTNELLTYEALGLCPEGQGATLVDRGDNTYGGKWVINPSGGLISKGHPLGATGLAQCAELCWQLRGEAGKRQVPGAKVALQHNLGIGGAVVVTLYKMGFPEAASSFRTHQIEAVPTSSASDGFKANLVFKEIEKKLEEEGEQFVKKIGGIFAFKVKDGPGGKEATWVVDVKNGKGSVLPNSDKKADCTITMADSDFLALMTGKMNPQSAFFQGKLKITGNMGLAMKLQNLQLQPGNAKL
Chain of UniProt Q63371 (whole entry, looked up): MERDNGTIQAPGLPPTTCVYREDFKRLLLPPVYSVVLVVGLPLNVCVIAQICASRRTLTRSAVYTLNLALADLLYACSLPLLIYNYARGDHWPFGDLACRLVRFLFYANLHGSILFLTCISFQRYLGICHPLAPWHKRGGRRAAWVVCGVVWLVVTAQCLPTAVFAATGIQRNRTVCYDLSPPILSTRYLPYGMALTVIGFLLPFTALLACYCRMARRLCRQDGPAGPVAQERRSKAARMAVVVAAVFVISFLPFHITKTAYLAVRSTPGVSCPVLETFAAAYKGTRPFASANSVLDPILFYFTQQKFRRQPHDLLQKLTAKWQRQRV
Chain of UniProt P18507 (whole entry, looked up): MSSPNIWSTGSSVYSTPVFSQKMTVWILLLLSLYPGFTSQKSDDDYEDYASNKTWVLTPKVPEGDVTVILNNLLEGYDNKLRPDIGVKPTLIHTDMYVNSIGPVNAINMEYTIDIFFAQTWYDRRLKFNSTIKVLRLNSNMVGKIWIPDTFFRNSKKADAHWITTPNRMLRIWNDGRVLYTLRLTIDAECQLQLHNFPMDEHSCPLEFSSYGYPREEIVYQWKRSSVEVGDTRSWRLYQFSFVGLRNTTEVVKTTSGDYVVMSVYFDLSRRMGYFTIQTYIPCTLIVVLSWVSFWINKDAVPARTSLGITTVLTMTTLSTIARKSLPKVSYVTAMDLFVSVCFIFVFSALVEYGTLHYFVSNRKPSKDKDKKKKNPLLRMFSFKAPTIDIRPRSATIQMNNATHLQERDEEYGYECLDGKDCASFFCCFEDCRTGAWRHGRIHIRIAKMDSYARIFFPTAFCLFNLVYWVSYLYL
Chain of UniProt P18505 (whole entry, looked up): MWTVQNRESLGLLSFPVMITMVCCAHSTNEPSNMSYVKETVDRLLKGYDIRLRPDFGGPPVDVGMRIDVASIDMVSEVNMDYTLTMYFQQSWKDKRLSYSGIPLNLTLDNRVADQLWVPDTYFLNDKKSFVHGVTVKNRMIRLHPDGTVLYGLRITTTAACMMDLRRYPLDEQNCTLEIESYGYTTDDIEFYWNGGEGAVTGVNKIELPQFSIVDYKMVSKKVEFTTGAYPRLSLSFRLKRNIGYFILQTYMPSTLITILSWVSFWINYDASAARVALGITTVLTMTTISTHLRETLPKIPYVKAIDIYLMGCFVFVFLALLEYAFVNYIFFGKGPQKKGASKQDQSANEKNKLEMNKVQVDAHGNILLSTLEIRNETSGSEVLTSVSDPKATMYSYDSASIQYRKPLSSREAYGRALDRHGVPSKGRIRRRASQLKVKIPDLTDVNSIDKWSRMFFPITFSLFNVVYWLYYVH
Chain of UniProt P47863 (whole entry, looked up): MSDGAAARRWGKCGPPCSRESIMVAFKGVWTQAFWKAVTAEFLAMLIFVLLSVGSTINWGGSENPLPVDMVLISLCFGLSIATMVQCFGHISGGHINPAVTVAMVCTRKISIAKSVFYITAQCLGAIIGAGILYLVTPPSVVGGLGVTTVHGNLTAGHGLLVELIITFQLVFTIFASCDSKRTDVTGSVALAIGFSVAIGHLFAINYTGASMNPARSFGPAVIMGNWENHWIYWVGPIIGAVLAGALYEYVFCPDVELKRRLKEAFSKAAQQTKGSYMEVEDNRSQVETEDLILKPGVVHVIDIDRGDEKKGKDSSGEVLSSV
Chain of UniProt P41143 (whole entry, looked up): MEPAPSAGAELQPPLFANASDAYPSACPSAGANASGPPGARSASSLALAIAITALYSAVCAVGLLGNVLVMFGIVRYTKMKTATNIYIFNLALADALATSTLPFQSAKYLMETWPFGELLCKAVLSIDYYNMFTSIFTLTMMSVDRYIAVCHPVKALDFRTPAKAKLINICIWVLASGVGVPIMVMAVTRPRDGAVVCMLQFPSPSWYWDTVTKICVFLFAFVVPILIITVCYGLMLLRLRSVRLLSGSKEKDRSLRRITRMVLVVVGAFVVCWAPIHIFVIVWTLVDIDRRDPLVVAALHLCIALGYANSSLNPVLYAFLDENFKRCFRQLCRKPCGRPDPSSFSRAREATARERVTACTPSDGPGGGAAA
Chain of UniProt P14867 (whole entry, looked up): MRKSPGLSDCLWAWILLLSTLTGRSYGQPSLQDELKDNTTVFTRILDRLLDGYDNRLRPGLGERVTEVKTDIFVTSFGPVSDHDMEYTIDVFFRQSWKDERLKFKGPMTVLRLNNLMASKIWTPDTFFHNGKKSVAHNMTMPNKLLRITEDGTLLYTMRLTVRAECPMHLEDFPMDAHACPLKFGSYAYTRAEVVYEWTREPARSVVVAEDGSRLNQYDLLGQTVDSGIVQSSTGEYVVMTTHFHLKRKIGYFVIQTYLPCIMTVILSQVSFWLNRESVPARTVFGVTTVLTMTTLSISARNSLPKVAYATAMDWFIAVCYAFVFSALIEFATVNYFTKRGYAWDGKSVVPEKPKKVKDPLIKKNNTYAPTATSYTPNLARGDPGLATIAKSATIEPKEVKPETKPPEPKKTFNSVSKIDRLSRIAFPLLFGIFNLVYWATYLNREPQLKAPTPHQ
Chain of UniProt P08908 (whole entry, looked up): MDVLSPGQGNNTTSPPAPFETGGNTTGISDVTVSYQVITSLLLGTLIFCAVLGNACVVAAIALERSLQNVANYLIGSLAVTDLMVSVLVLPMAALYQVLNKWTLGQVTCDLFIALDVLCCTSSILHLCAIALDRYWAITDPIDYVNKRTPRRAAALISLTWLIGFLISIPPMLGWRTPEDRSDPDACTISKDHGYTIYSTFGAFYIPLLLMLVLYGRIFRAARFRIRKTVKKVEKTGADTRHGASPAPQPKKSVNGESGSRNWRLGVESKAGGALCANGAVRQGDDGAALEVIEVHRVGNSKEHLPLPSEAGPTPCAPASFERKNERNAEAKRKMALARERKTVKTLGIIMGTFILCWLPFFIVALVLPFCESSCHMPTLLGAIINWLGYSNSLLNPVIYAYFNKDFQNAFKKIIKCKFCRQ
Chain of UniProt P42264 (whole entry, looked up): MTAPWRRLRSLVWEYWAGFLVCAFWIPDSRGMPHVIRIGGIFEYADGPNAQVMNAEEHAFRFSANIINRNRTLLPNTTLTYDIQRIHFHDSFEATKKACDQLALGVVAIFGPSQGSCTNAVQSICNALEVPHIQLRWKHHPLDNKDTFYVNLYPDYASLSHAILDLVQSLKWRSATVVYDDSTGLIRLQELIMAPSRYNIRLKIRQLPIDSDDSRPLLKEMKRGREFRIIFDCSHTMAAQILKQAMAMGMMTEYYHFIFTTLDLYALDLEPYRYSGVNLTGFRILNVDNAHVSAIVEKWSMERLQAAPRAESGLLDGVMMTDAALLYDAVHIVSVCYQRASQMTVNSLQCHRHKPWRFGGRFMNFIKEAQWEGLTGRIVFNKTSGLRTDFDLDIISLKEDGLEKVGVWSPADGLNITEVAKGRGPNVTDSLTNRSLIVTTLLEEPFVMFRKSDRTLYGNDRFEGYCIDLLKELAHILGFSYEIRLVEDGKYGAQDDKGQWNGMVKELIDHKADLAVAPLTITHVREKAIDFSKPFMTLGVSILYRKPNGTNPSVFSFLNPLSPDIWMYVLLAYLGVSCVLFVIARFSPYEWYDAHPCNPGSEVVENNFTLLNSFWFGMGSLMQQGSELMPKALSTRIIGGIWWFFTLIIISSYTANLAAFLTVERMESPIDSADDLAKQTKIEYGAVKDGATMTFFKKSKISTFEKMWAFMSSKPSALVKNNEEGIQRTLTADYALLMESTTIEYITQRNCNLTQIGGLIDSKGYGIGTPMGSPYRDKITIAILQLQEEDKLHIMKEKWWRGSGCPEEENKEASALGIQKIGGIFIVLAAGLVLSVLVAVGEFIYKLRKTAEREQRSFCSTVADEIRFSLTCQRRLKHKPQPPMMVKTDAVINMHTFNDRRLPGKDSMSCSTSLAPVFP

`CC[C@H](C)[C@H](NC(=O)[C@H](CCCNC(=N)N)NC(=O)[C@H](CCSC)NC(=O)[C@@H](N)CCC(=O)O)C(=O)N[C@@H](CO)C(=O)N[C@@H](CCCNC(=N)N)C(=O)N[C@H](C(=O)N[C@H](C(=O)N[C@@H](CCCNC(=N)N)C(=O)N[C@@H](CC(=O)O)C(=O)N[C@@H](Cc1ccccc1)C(=O)N[C@@H](CC(C)C)C(=O)N[C@@H](CC(C)C)C(=O)N[C@@H](CC(C)C)C(=O)N[C@@H](CCCNC(=N)N)C(=O)O)[C@@H](C)CC)[C@@H](C)CC` gave an EC50 of > 1000 nM (histidine kinase ComD (Streptococcus pneumoniae serotype 2, UniProt A0A0H2ZM50); Streptococcus pneumoniae).
`CC[C@H](C)[C@H](NC(=O)[C@H](Cc1c[nH]cn1)NC(=O)[C@@H](NC(=O)[C@H](CC(C)C)NC(=O)[C@H](CCCNC(=N)N)NC(=O)[C@@H](NC(=O)[C@@H](N)CCC(=O)O)[C@@H](C)CC)[C@@H](C)O)C(=O)N[C@@H](Cc1ccccc1)C(=O)N[C@@H](Cc1ccccc1)C(=O)N[C@@H](Cc1ccccc1)C(=O)N[C@@H](CC(N)=O)C(=O)N[C@@H](Cc1ccccc1)C(=O)N[C@@H](Cc1ccccc1)C(=O)N[C@@H](CCCCN)C(=O)N[C@@H](CCCNC(=N)N)C(=O)N[C@@H](CCCNC(=N)N)C(=O)O` has an EC50 of > 10000 nM (histidine kinase ComD (Streptococcus pneumoniae serotype 4, UniProt A0A0H2US84); reporter gene, agonist; Streptococcus pneumoniae, TIGR4 comX::lacZ; 30 min, pH 7.3, 37 °C).
With `CC(C)N(CCc1c[nH]c2ccccc12)C(C)C` the EC50 was > 10000 nM (HTR2A; β-arrestin recruitment, agonist).
For `CC[C@H](C)[C@H](NC(=O)[C@H](Cc1ccccc1)NC(=O)[C@H](CCCNC(=N)N)NC(=O)[C@H](CO)NC(=O)[C@@H](NC(=O)[C@H](CCCNC(=N)N)NC(=O)[C@H](CCSC)NC(=O)[C@@H](N)CCC(=O)O)[C@@H](C)CC)C(=O)N[C@@H](CC(C)C)C(=O)N[C@@H](CC(=O)O)C(=O)N[C@@H](Cc1ccccc1)C(=O)N[C@@H](CC(C)C)C(=O)N[C@@H](CC(C)C)C(=O)N[C@@H](CC(C)C)C(=O)N[C@@H](CCCNC(=N)N)C(=O)O`, the EC50 was > 1000 nM (histidine kinase ComD (Streptococcus pneumoniae serotype 2, UniProt A0A0H2ZM50); Streptococcus pneumoniae).
The EC50 of `O=C1c2ccccc2-n2c1nc1ccccc1c2=O` is reported as 35 nM (Aryl hydrocarbon receptor (Ahr, Mus musculus, UniProt P30561); reporter gene, activator; H1L7.5c3 (mouse); 6 h).
The EC50 of `CC(C)NCCc1c[nH]c2ccccc12` is reported as > 10000 nM (HTR2A; β-arrestin recruitment, agonist).
With `CCC[CH2][Sn]([CH2]CCC)([CH2]CCC)[O]c1cc(Cl)c(Cl)cc1Cl` the EC50 was 30000 nM (Aquaporin-4 (Rattus norvegicus, UniProt P47863); water permeability, inhibitor, stopped-flow light scattering; TNC1 plasma membrane vesicles; 15 min).
With `N[C@@H](CCC(=O)O)C(=O)O` the EC50 was 565 nM (Metabotropic glutamate receptor 3 (Grm3, Rattus norvegicus, UniProt P31422); ion flux, agonist).
`O=C1Nc2cc(Cl)c(Cl)cc2N2CCNCC12` (centres unmarked) gave an EC50 of 61 nM (HTR2A; calcium signal, agonist).
With `CN[C@@](C)(C[18F])C(=O)O` the tracer uptake was 1.5 %ID/g (DU-145 tumour model; host not given, bone; 1 h, tumour-bearing).
For `C=C1C(=O)N[C@@H](C)C(=O)N(C)[C@@H](C)C(=O)N[C@@H]([C@H](OC(=O)[C@@H](NC(=O)CC)[C@H](O)C(C)C)C(C)C)C(=O)N(C)[C@@H]([C@@H](C)OC)C(=O)O[C@H](C(C)C)[C@H](NC(C)=O)C(=O)O[C@H](Cc2ccccc2)C(=O)N1C`, the EC50 was 3 nM (Gnaq, with Gβ1γ2 (Mus musculus, UniProt P21279); Gβ1γ2–Gαq association, split-luciferase complementation; HEK293; 18 h, wild-type Gαq).
With `CCCN(CCC)CCc1c[nH]c2ccc(OC)cc12` the EC50 was 6 nM (HTR2A; calcium signal, agonist).
With `C[C@@]1(O)CC[C@@]2(C)[C@@H](CC[C@@H]3[C@@H]2CC[C@]2(C)[C@@H](c4cc(CO)on4)CC[C@@H]32)C1` the EC50 was 630 ± 50 nM (GABA A receptor alpha-1/beta-1/gamma-2 (Homo sapiens, UniProt P14867+P18505+P18507); GABA current potentiation, positive modulator, two-electrode voltage clamp; Xenopus laevis oocytes; 30 s preincubation, with: GABA EC10).
`COc1ccc2[nH]cc(CCN)c2c1` gave an EC50 of 183 nM (5-hydroxytryptamine receptor 1A (HTR1A, Homo sapiens, UniProt P08908); calcium signal, agonist).
The EC50 of `[Cl-].[Cl-].[Zn+2]` is reported as 46000 nM (Glutamate receptor ionotropic, kainate 3 (Rattus norvegicus, UniProt P42264); ion current, positive modulator, whole-cell patch clamp; HEK293 cells; combined potentiation and inhibition fit, with: glutamate 10 mM).
`C[C@]12CC(=O)[C@H]3[C@@H](CCC4=CC(=O)CC[C@@]43C)[C@@H]1CC[C@@H]2O` gave an EC50 of 3.5 to 9.3 nM (Androgen receptor beta (Oryzias latipes, UniProt D1MV73); reporter gene, agonist; range minimum-maximum).
For `CCCCC/C=C\C/C=C\C/C=C\C/C=C\CCCC(=O)NCC(=O)O`, the EC50 was 2780 ± 60 nM (Sterol carrier protein 2; NBDS displacement, fluorescent probe displacement; 50% of maximum displacement, with: NBDS 500 nM).
For `O=C(c1ccc(F)cc1)N1CCc2nc(COc3ccccc3)oc2C1`, the EC50 was 317 nM (Metabotropic glutamate receptor 5 (Grm5, Rattus norvegicus, UniProt P31424); calcium mobilization, positive allosteric modulator; rat cortical astrocytes; with: glutamate).
The EC50 of `CC(C)Oc1ccccc1-n1c(CN2CCN(C(=O)COc3ccc(Cl)cc3)CC2)nc2ccccc2c1=O` is reported as 160 ± 20 nM (Slc7a11 (Rattus norvegicus, UniProt A0A8I6AB70); glutamate release, inhibitor; rat primary microglia; 24 h, with: LPS 1 µg/mL).
With `COc1cc2ccnc3c2c(c1O)NC=C3` the EC50 was 4100 nM (Delta-type opioid receptor (OPRD1, Homo sapiens, UniProt P41143); calcium signal, agonist).
With `[BH3-][P+](O)(OP(=O)(O)OC[C@H]1O[C@@H](n2cnc3c(N)ncnc32)[C@H](O)[C@@H]1O)OP(=O)(O)OP(=O)(O)OC[C@H]1O[C@@H](n2cnc3c(N)ncnc32)[C@H](O)[C@@H]1O` (some centres unmarked) the EC50 was > 100000 nM (P2Y purinoceptor 6 (Rattus norvegicus, UniProt Q63371); intracellular calcium rise, agonist; 1321-N1 transfected with rat P2Y6; 37 °C).
`CCCCC/C=C\C/C=C\C/C=C\C/C=C\CCCC(=O)Nc1ccc(O)cc1` has an EC50 of 3210 ± 70 nM (Sterol carrier protein 2; NBDS displacement, fluorescent probe displacement; 50% of maximum displacement, with: NBDS 500 nM).
With `CC[C@H](C)[C@@H]1NC(=O)[C@H](CCCNC(=N)N)NC(=O)[C@H](CC(=O)O)NC(=O)[C@H](CC(C)C)NC(=O)[C@H](CCCCN)NC(=O)[C@H](CC(C)C)NC(=O)CNC(=O)[C@H](Cc2ccccc2)NC(=O)[C@@H](NC(=O)CNC(=O)[C@H](CCCCN)NC(=O)[C@H](CO)NC(=O)[C@H](CC(C)C)NC(=O)CNC(=O)[C@H](CCCCN)NC(=O)[C@H](CCCCN)NC(=O)[C@H](CC(N)=O)NC(=O)[C@H](C)NC(=O)CNC(=O)[C@H](CCCCN)NC(=O)[C@H](Cc2ccc(O)cc2)NC(=O)[C@H](CCCCN)NC(=O)[C@H](CCCNC(=N)N)NC(=O)[C@H](C)NC(=O)[C@H](CC(N)=O)NC(=O)[C@@H]2CCCN2C(=O)[C@H](Cc2c[nH]cn2)NC(=O)[C@H](CCC(=O)O)NC(=O)[C@H](CCC(N)=O)NC(=O)CNC(=O)[C@@H]2CCCN2)CSSC[C@@H](C(=O)O)NC(=O)CNC(=O)[C@H](CC(C)C)NC(=O)CNC(=O)[C@H](CO)NC(=O)[C@H](CCSC)NC(=O)[C@H](CO)NC(=O)CNC1=O` the EC50 was 5.02 ng/mL (NPR-B; urine cGMP/creatinine, Emax model on Cmax; human; 15 µg/kg).
The EC50 of `CCCCCCCCCCC#CCCCCC(=O)O` is reported as 71700 ± 3800 nM (DNA topoisomerase IB (Leishmania donovani, UniProt A0A3Q8IHS4+Q8WQM6); DNA relaxation activity, inhibitor; 30 min, 37 °C).
For `CNCCc1c[nH]c2ccc(OC)cc12`, the EC50 was 3.78 nM (HTR2A; calcium signal, agonist).
`CC[C@H](C)[C@H](NC(=O)[C@H](CCCNC(=N)N)NC(=O)[C@H](CCSC)NC(=O)[C@@H](N)CCC(=O)O)C(=O)N[C@@H](CO)C(=O)N[C@@H](CCCNC(=N)N)C(=O)N[C@H](C(=O)N[C@H](C(=O)N[C@@H](CC(C)C)C(=O)N[C@@H](CC(=O)O)C(=O)N[C@@H](Cc1ccccc1)C(=O)N[C@@H](CC(C)C)C(=O)N[C@@H](CC(C)C)C(=O)N[C@@H](CCC(N)=O)C(=O)N[C@@H](CCCNC(=N)N)C(=O)O)[C@@H](C)CC)[C@@H](C)CC` has an EC50 of > 1000 nM (histidine kinase ComD (Streptococcus pneumoniae serotype 2, UniProt A0A0H2ZM50); Streptococcus pneumoniae).

Some of these lines once more:
The EC50 of `O=C1c2ccccc2-n2c1nc1ccccc1c2=O` is reported as 35 nM (Aryl hydrocarbon receptor (Ahr, Mus musculus, UniProt P30561); reporter gene, activator; H1L7.5c3 (mouse); 6 h).
